Measurements of several laboratories.
A part holds a random share of what one study measured.

Series 1 — technique: RNA Bind-n-Seq; form: RNA; sample: in vitro; tested at: 365 nM; baseline: no-protein control; reading: higher = stronger binding
Target: RNA binding protein fox-1 homolog 2, RRM domain, GST-SBP tag (RBFOX2, Homo sapiens, UniProt O43251-10, residues 100-194)
Notes: natural RNA segment, single round, ends assumed
Construct (chain): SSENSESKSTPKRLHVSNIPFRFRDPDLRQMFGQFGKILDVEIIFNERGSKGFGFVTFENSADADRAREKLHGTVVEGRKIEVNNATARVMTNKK
| Sequence | RBNS enrichment (R) |
| --- | --- |
| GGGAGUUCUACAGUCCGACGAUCGAAUGAGAGAACUGUGUAAACACCCCGCUGUUCCUUCAGUGCAACACAAUAAAACUCUGAAAUGAAGAUGCUUUGCUGUGCAUUGUUUGAAAGAUUACAAACAGCUGUUUUGGAAUUCUCGGGUGCCAA | 0.409 |
| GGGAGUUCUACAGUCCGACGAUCAAGUGAAAAAGAAGAAAUAGAGAAUUCCAGCAGAAUUCAGUGGUUGUCUACUAUCCAUACUUCUUAUCACUUUAGUUUUUCAUCAGUCAAUAAAAUUAAUUUACUCUUCCUGGAAUUCUCGGGUGCCAA | 0.606 |
| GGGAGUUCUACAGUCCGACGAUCCAGCGUUUGUGGGUUGGUUCAGGUGUGGUACCUCCCACUCAGGAGUCAAUAUUUUCAAAUUUUUCUAGUUUCCACACACGAGGUCCUGCCUGGGGUUUGAGAAAGCCUGGUGGAAUUCUCGGGUGCCAA | 0.5 |
| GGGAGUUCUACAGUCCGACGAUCCUGGUAGACCGUUCUGGAAUGGAGGGGCUAUGAUCGUCCUAGGACCUGUGCUACGGAGGGGUGGAGGGCACUGAGUAGGGCUCUGCCCUAUUCAUCUUGUUGGAACCCCAUGGAAUUCUCGGGUGCCAA | 0.372 |
| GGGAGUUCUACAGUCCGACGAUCAUCUUAAGCUUCUCUACUGAGGCAUUCUGAGUAGUGGCCAUCAGAGUCUCCUGCCUGCCCACAGAGCAGAGAACCAGUGCACGCUCUUAAGAGAAACUACUUGGCCAAACUGGAAUUCUCGGGUGCCAA | 0.973 |
| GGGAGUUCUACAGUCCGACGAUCCGGGAAGCUUCUUGUGUCUGGAAGCUUCUUGUGUCUCCACGUUUCAAUUUUGUUUUGUUUUACCACUUUCAUUUUUAAACGUUUUCCAGUAUCCCCCCCAAAAUUUUAGAUGGAAUUCUCGGGUGCCAA | 0.599 |
| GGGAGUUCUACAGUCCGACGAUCUGCCCUGUACCCUUGCCUCUUCCCAGUGAUAGUGGGCAUAUCCACCUCACCAAGAUAAUUCUGUACAGUGACUAGCAGAUCCUGGCCUAGGGUGGCUCAGCCGGUGUUUUUGGAAUUCUCGGGUGCCAA | 0.344 |
| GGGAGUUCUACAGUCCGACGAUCUUUGAUUCAACAUCACAAAAAAGAAAAAUUCAGUGGUUCCAGUAAAGAUUUGAAAUUUGUUAAAAUGAGAAAUACCUUUGGAAGCCAUACAUAUGAAAAUCAGGAGGAAAUGGAAUUCUCGGGUGCCAA | 0.298 |
| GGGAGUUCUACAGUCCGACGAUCAUGCGGAUGAUUUAUGAGAAUAGAGGGGCAGAGUUUGUGAAGUCUAGGGUUUUUUGUCCAGUGGGUUUCAAAUUUGUUGGCUGUUUAAAGACCCUGUCUCCUCCCCCACCUGGAAUUCUCGGGUGCCAA | 0.368 |

Series 2 — technique: RNA Bind-n-Seq; form: RNA; sample: in vitro; tested at: 200 nM; notes: whole 134-nt RNA, ends assumed; added: 150 mM KCl; baseline: input library; reading: higher = stronger binding
Target: Ras GTPase-activating protein-binding protein 1, full length (G3BP1, Homo sapiens, UniProt Q13283)
Chain of UniProt Q13283 (whole entry, looked up): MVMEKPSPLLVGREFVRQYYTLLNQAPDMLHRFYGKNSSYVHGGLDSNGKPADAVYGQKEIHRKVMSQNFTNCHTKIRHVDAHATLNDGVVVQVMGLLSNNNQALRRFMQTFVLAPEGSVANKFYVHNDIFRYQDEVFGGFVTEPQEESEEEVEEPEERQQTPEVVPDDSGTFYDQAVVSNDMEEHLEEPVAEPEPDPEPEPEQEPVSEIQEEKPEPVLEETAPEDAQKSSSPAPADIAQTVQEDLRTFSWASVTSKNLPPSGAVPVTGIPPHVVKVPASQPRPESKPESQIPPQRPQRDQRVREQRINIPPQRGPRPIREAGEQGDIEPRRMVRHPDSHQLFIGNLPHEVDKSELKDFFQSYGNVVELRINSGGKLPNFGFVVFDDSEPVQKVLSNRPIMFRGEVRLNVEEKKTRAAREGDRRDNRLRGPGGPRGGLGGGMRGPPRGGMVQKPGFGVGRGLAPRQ
| Sequence | log2 enrichment |
| --- | --- |
| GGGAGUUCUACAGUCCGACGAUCCCUCAAGUCCUGUGCUACACAUCGUAUGUACCGAAUCGGUGGGGUGGGGUGGAAAGUAUUAUGUUACGCCGUUCGGAUCUGCACUUCCAGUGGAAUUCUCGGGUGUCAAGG | 0.324 |
| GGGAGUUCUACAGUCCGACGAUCAGUCCUGUGCUACACAUCGUAUGUACCGAAUCGGGAAAGGGUUUUUUUGGGUUUGGGAAAGUAUUAUGUUACGCCGUUCGGAUCUGCACUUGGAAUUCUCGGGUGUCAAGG | -0.165 |
| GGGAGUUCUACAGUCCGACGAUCCCUGUGCUACACAUCGUAUGUACCGAAUCGGAAAAAAAGGAAAAAAAGGGGAAAAAAAGGGAAAGUAUUAUGUUACGCCGUUCGGAUCUGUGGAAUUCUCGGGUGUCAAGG | -0.974 |
| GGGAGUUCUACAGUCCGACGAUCUAACUUUAGAGGAGGAUCUGAUGGAUAUGGCAGUGGACGUGGAUUUGGGGAUGGCUAUCAUGGGUAUGGAGGAGGACCUGGAGGUGGCAAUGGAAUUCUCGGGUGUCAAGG | 0.313 |
| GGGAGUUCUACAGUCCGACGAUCACCAUGCAGGUGGGCAUCUUUGGGAAGUGGGGCAAGGGGGGGAUAGGGAGGGGGGUAACACUUUGGGAACAGGUGGUCCCAAAUCGUUUCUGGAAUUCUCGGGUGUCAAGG | 0.908 |
| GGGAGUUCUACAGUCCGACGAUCACCAUGCAGGUGGGCAUCUUUGGGAAGUGGGGCAAGGGGGGGAUAGGGAGGGGGGUAACACUUUGGGAACAGGUGGUCCCAGCUCGUUUCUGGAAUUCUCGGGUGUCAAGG | 1.32 |
| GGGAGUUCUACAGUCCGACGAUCUCAAGUCCUGUGCUACACAUCGUAUGUACCGAAUCGGUUUUUGGAGGUUUUUGGAAAGUAUUAUGUUACGCCGUUCGGAUCUGCACUUCCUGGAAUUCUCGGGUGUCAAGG | -0.665 |
| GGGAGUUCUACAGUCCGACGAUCUAACUUUAGAGGAGGAUCUGAUGGAUAUGGCAGUGGACGAGGAUUUGGGGAUGGCUAUAAUGGGUAUGGAGGAGGACCUGGAGGUGGCAAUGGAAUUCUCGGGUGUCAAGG | 0.345 |
| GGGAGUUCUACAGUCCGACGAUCCAAGUCCUGUGCUACACAUCGUAUGUACCGAAUCGGGAAAAAAAGGGUGGGAGGGAAAGUAUUAUGUUACGCCGUUCGGAUCUGCACUUCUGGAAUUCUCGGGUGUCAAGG | 0.598 |
| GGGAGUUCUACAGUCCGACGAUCCGCAGAAGUCGCGUGUCUAGGUGAGUCGCGGUGGGUCCUCGCUUGCAGUUCAGCGACCACGGUGGGUACCGUUUUUGCGAGGAUUGUUUGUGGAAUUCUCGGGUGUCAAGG | -1.69 |
| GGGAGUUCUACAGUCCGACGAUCUGGUGUUAUUUUUGCACUACAAGGGCUCUGAAGACUGCCAGGCUUGAAAUGAAGAACGAUGUCACCUGCCUAUCACAGCCAGGUGACAAUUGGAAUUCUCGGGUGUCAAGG | -2.39 |
| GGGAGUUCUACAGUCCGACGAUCAGUCCUGUGCUACACAUCGUAUGUACCGAAUCGGGUUUUGGGGUUUUGGGUUUUGGGGAAAGUAUUAUGUUACGCCGUUCGGAUCUGCACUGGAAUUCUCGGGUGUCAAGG | -0.00629 |

Series 3 — technique: RNA Bind-n-Seq; form: RNA; sample: in vitro; tested at: not given; baseline: input RNA pool; reading: higher = stronger binding
Target: RING finger protein unkempt homolog, zinc fingers 1-6, GST-SBP tag (UNK, Homo sapiens, UniProt Q9C0B0, residues 30-357)
Notes: RNA with constant flanks, human and mouse sites, ends assumed
Construct (chain): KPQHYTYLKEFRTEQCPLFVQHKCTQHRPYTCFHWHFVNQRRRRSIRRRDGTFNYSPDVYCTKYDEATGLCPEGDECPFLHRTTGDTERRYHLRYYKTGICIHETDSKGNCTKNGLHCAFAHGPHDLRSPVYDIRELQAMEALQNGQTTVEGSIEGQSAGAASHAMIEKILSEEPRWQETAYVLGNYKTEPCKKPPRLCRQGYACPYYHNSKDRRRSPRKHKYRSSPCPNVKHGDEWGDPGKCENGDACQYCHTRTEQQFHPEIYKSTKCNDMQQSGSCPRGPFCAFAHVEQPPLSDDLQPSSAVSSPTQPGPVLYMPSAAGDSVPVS
| Sequence | bound/input enrichment [ratio] |
| --- | --- |
| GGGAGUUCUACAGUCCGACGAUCAUUUGGUCAAGAUAUUCACUUGUAAUUAUACCAAAAAAUUGGAGUUUGUUCGCUGUUAAUUUCUUUGUGGGGUCAGCAGGAGCCUCUCAGCUGUUUCGGAUUUGGAGAUAUAACCAAGAACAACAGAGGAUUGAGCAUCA | 0.544 |
| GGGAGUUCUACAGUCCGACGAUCGUUAUUGAAAAACUGUUAACCUCUUACGGAUUUAUUCAGUGUUCAGAACGUCAAGCUAGACUUUUCUUCCACUGUUCACAGUAUAAUGGCAACCUGCAAGACUUAAAAGUAGGAGAUGAUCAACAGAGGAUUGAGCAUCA | 0.386 |
| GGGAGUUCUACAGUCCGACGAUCCUAGCUCCAGGUUAGGCCGAGCUUUGCGGGAAAGCAGCGGACUUGAAAAUACUGGAAAUCUGUCCGGAUCCAAAUUAUUUUGCAAGCCAGAUGAGUAACCAGAGGGCAUGAAAGGUUGAGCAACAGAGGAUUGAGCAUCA | 0.602 |
| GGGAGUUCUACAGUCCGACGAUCUGUGGCUUUGGUGGGGUCUUAAGUUGUGGUCUGACACACACUGCUGUGGUUCCCCUGGAUUUAGUGAAAUGCCGUAUGCAGGUGGACCCCCAAAAGUACAAGGGCAUAUUUAACGGAUUCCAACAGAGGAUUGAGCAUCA | 0.203 |
| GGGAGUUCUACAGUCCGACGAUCGUGGAGAACCAGAGUCUGCGUGGCGUGGUACAGGAGCUGCAGCAGGCCAUCUCCAAGCUGGAGGCCCGGCUGAACGUGCUGGAGAAGAGCUCGCCUGGCCACCGGGCCACGGCCCCACAGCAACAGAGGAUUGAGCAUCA | 0.101 |
| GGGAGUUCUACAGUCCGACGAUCACCACCCACACCACCCUGGAGCACUCUGAUUGUGCCUUCAUGGUAGACAAUGAGGCCAUCUAUGACAUCUGUCGUAGAAACCUCGAUAUUGAGCGUCCAACCUAUACUAACCUGAAUAGGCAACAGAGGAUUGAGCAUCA | 0.136 |
| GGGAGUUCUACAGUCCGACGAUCGAAUUUGCCUAUACUUCUGUACUAAGUUUUGACUUUUGUAGCAUGGCUGAUGUAGCCGUCUUAGCUCGCCACCUUUUUAUGUCAGAAGUUUUAGAAAUUUGUGAAAGUGUACAUAAACUACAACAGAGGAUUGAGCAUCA | 0.465 |
| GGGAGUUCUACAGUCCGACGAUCAAGUACAUCCACAUCCUGGCUUACGCUGCCAGUGUGGUUGAGACCUGGAAGAAGAACAAGCGGGUCAGCAUUGGCAAAGACGAGCUCAAGUCCACGUCAAAGGCUAUCGAGACUGUCCACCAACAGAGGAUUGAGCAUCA | 0.0848 |

Series 4 — technique: universal PBM; form: double-stranded DNA, one strand shown; sample: in vitro; tested at: not given; reading: higher = stronger binding
Target: Sal-like protein 4, full length isoform B (SALL4, Homo sapiens, UniProt Q9UJQ4-2, residues 1-616)
Notes: 8-mer, flanks averaged, mean of replicates
Residues (chain): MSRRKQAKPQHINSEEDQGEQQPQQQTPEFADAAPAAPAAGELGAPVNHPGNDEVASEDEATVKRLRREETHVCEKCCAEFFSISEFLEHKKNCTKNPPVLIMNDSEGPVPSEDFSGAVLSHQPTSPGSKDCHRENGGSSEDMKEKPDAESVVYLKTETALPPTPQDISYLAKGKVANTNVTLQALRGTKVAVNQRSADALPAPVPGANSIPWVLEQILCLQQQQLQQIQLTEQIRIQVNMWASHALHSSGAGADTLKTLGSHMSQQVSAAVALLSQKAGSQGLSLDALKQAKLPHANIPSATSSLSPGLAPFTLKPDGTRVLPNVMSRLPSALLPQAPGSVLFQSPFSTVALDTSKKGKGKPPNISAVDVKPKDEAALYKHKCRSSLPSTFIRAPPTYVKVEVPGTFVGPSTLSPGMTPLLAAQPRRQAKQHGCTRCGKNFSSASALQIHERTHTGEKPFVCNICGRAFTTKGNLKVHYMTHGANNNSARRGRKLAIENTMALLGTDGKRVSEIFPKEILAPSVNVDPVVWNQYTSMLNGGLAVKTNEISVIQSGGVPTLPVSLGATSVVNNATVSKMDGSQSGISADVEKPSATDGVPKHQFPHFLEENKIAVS
| Sequence | E-score |
| --- | --- |
| TACATCAA | 0.211 |
| AGCTGGAC | -0.082 |
| CCATATTC | 0.201 |
| ACACATTG | 0.1 |
| GCACCGAA | -0.116 |
| ACGTCGGG | -0.264 |
| CAGCGACA | -0.0829 |
| AGAGCCGC | -0.303 |
| AACCGACC | -0.254 |
| ATCGCGGG | -0.192 |
| ATTACCCG | 0.105 |
| AACGCCGA | -0.0353 |
| ACCATAAT | 0.338 |
| ATCACGGC | -0.0215 |
| ACACCCTC | -0.0161 |
| ATGTAGCG | 0.00246 |
| GGTCTACA | 0.0691 |
| AAAGGCGA | 0.11 |
| ACCGGACA | -0.263 |
| ATTTTATG | 0.264 |
| TACGAGTA | 0.151 |
| ATCGCTCA | -0.142 |
| AGTCGGCC | -0.294 |
| ACGTAGCA | -0.0206 |
| GAGCAGAA | -0.00094 |

Repeated from above (series 4):
| Sequence | E-score |
| --- | --- |
| ACACATTG | 0.1 |
| GCACCGAA | -0.116 |
| ACGTCGGG | -0.264 |
| CAGCGACA | -0.0829 |
| AGAGCCGC | -0.303 |
| AACCGACC | -0.254 |
| ATCGCGGG | -0.192 |
| ATTACCCG | 0.105 |
| AACGCCGA | -0.0353 |
